# Assay results from different studies.
# A part holds a random share of what one study measured.

# Study 1 — technique: protein binding microarray; molecule type: double-stranded DNA, one strand shown; sample: in vitro; concentration: not given; relative to: not given; direction: higher = stronger binding
# Target: Histone acetyltransferase KAT6A, winged helix 2, GST fusion (KAT6A, Homo sapiens, UniProt Q92794, residues 85-181)
# Notes: 8-mer, flanks averaged, mean of 2 arrays, mostly near background
# Target sequence (chain): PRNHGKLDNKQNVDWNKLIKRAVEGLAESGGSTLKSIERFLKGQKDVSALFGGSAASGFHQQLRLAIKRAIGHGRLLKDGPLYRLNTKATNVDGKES
Strand,E-score
ACAAGCGT,0.0445
ATAACGGA,-0.0555
CTGCCCAC,-0.0456
ACAGTGAG,0.0211
CATTTACC,-0.0261
CGTACTCA,-0.227
CTGAATTC,-0.0857
ATCATTTG,-0.0652
GACGTTCC,-0.143
AGGCAATC,0.028
GTCTTGAA,0.00534
CTACCAAA,-0.0432
ACATATGG,-0.248
GCTATACC,-0.11
AACACCAC,-0.0492
CCTCTAAA,-0.0871
GGCAGGTA,0.034

# Study 2 — technique: universal PBM; molecule type: double-stranded DNA, one strand shown; sample: in vitro; concentration: not given; direction: higher = stronger binding
# Target: Sal-like protein 4, full length isoform B (SALL4, Homo sapiens, UniProt Q9UJQ4-2, residues 1-616)
# Notes: 8-mer, flanks averaged, mean of replicates
Strand,E-score
GGCAACAA,0.11
GGCCTGAA,-0.226
GTGACCTA,-0.0964
GGGACGGA,-0.253
ACCCACGG,-0.334
GCACCTGC,-0.221
ACAATTAC,0.319
CATACACG,0.134
AATCCAGA,0.236
AGGGCGCG,-0.222
AGAAGTCC,-0.169
GAGATACC,-0.127
CAAGATTG,0.101
AGCGCAAG,-0.141
AGCCCTCC,-0.322
AGCTTTTG,0.0235
CCAATGGA,-0.146
GAAATGGC,-0.0309
CCGCCAGA,-0.126
CCTCTCCG,-0.34
GCATGAAC,-0.0163

# Study 3 — technique: RNA Bind-n-Seq; molecule type: RNA; sample: in vitro; concentration: not given; relative to: input RNA pool; direction: higher = stronger binding
# Target: RING finger protein unkempt homolog, zinc fingers 1-6, GST-SBP tag (UNK, Homo sapiens, UniProt Q9C0B0, residues 30-357)
# Notes: RNA with constant flanks, human-mouse chimeric sites, ends assumed
# Constant ends, left off below: GGGAGUUCUACAGUCCGACGAUC … CAACAGAGGAUUGAGCAUCA
# Construct (chain): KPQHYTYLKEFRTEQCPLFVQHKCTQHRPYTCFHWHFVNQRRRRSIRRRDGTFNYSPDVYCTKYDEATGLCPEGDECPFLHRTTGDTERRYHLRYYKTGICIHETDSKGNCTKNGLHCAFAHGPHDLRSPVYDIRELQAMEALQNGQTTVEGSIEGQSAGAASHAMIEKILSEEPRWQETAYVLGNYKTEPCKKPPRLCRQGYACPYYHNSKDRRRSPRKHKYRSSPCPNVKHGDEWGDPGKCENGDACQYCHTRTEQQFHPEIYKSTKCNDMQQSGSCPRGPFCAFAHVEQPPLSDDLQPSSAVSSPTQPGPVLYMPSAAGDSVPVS
Strand,bound/input enrichment
UUACCCGAGAACGAGGAUGAGCUGGAGAGCACCAACAGGCGCUACACCAAGAGGGACUGCAGCACUUUUCUCAGAACUAGUGAGACGGGCAUUGUGGACCAGGUCAUGGUCACUCUCAAC,0.155 ratio
GGGUGGGUGGUCAUUGCGCCAAUUGAGGCUGAUUUUCAUGAGUCGCCUUCAAAACUCUCGUGUAGGGUUGACAAUGUGGGGGGGUGGGGGAUCCAGCUUAUUCUUUUAUUUUCAAGUCCA,0.946 ratio
AGUGUGCAGGAAUUCAUGACCUUUACAAGUCAACUGAUUGUGGAACGCUCGGGGAAAGGCAGCAGAGCUUCUGUCAAAGAACAAGACUAUCUGUGCCAUGUCUACGUCCGGAGCGACAGU,0.147 ratio
UAAAUUAGGGCUGCCGUCCGUUCUCACGCCCUGAGCUGCGGAAAGCCAGAAGAUUUUAUCUAGCUUAUACAAGGCUGCUGGUGUUCCCUCUUUUUUUCCACGAGGGUGUUUUUGGCUGCA,0.538 ratio
UUUCUACUGCAGCAAACGAUGCUAAGAGUGAAGGAUCCUAAGAAGUCACUGGAUUUUUAUACGAGGGUUCUUGGACUGACCCUCCUGCAGAAGCUUGACUUCCCUGCUAUGAAGUUCUCG,0.121 ratio
CUGGCCUUCUGAGCAUCAGGGGCCUCCUUUCGUAUAGUAACUGUCAGUGCAUCAGAUACUUUCAGCUGCAACUCCCUACUGGGUGGGGCACCCAUUUCAGGCAGAAGGUUUUGGUACCCU,0.265 ratio
AACAGAUUGUCUUUAAGCAUUCCAAGCGAGAAUGCUGGGGUGAUCAUAAUUACCCACGUGCCUUCUGACUGAGCUUUAAUGCUGUUCCAUGUUACAUCUUUCCUUCAUUGCAUAUUUGUU,0.115 ratio
AUGGAACAUUUCGAUGCGUCACUCAGUACCUAUUUCAAGGCCUUCCUGGGCCCCCGAGAUACAAGAGUAAAAGGAUGGUUCCUCCUGGACAAUUACAUCCCUACGUUUAUCUGCUCUGUU,0.068 ratio
UUUGUAUUUAUGCUAAGCACGCGUGCUGGUGGUCUGGGCAUCAAUCUUGCAACUGCUGAUGUAGUCAUUUUAUAUGACUCAGAUUGGAAUCCGCAAGUUGAUCUUCAGGCUAUGGACCGU,0.102 ratio
UCUUAACUUAUUCAUUUAACUUAUUUUUAUAGCUAGAUAAAUAUUGUUAGUCUUAGUCAAUAGCUCACAUUUUUUGAGAAGCAUGCCCUCCCUGUCCAUUGGGCCCAUAACAUGACCCAG,39.9 ratio
CUGUGUGGCUUACUAAAAUGGCUUGUAAAGAAGUUUUUCCAAGCUGUAACCCAUGCUGUUAUUAUAGUUGCUGCAAAAUGUUCUUCCUGAUAUUGAUUUUAUUUGUUCUGACUCUCCCUC,0.781 ratio

# Study 4 — technique: protein-binding microarray; molecule type: double-stranded DNA, one strand shown; sample: in vitro; concentration: 2200 nM top; notes: 60-bp whole probe; added: salmon DNA 0.4 mg/ml; relative to: random background probes; direction: higher = stronger binding; constant ends, left off below: GCCTAGCAC … GTCTTGATTCGCTTGACGCTGCTG
# Target: Interferon regulatory factor 7, full length, phosphomimetic (IRF7, Homo sapiens, UniProt Q92985, residues 1-503, S471D/S472D/S475D/S476D/S477D/S483D/S484D/S487D)
# Sequence of UniProt Q92985 (whole entry, unmodified, looked up): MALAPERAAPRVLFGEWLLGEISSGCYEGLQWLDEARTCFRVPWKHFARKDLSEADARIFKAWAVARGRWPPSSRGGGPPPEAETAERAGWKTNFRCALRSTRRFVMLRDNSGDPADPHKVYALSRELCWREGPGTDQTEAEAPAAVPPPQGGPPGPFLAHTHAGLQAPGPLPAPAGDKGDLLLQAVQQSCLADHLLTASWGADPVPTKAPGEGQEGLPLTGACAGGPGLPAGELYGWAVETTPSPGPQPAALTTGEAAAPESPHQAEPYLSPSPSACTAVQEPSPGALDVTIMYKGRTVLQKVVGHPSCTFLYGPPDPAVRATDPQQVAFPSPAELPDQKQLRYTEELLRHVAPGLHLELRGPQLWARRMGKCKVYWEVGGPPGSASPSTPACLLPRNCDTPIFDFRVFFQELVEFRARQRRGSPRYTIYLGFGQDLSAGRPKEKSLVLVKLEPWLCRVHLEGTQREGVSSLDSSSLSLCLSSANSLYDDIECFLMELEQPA
Strand,fitted relative affinity
TGTTTTAATTTTCTCTTTGGGTGCTAG,4.89 z-score
TTAGATCTGAGTATCGATTAGTGCTAG,-0.000668 z-score
TTAGGTATTCTTTTCCTTTAGTGCTAG,1.27 z-score
TCATCCATCACTTTCCAACTGTGCTAG,3.08 z-score
TTAGGGCTGCTTTTCCTTTAGTGCTAG,0.852 z-score
GTCGGTTTCCTTTTCCTGACGTGCTAG,7.27 z-score
CCTCCTCTAACTTTCCAATTGTGCTAG,3.94 z-score
TCCCACAGTCGAAAGTCTGCGTGCTAG,0.717 z-score
GACGGTTCCCTTTTCCTGGCGTGCTAG,2.45 z-score
TTAGGTTCGCTTTTCCTTTAGTGCTAG,5.01 z-score
CCTAGTTGTACTTTCTATCTGTGCTAG,4.28 z-score
TTAAGTATCGGTATCGGTTAGTGCTAG,1.18 z-score
TTAGATGTCAGACTGGATTAGTGCTAG,-0.179 z-score
GTAAATCTTTTTCCCTATTAGTGCTAG,1.32 z-score
GACGAACTGGGGTATCCAGACGTGCTA,-0.328 z-score
TCAACTCTTCCTTTACTACTGTGCTAG,1.82 z-score
TTAGGTTTCGGGACTGGGTTAGTGCTA,3.24 z-score
GACGATCTAAGTTTCGAGACGTGCTAG,2.72 z-score
GACGGACTGGACACTGGGTACGTGCTA,-0.783 z-score
GACGGTTTCCTTGTCCTGACGTGCTAG,2.21 z-score
TTCGGTATCGACTTTCGGTTAGTGCTA,6.46 z-score
TTAGGTTTCCTTATACTTTAGTGCTAG,1.51 z-score
TTAGGCCTGGGACTGGGTTAGTGCTAG,-1.24 z-score
GACGATTTCAGTCTCGAAACGTGCTAG,0.842 z-score
TTAGCTTCCAGTTTCGATTAGTGCTAG,6.41 z-score

# Study 5 — technique: RNA Bind-n-Seq; molecule type: RNA; sample: in vitro; concentration: 1 µM; notes: whole 134-nt RNA, ends assumed; added: 150 mM KCl; relative to: input library; direction: higher = stronger binding
# Target: Ras GTPase-activating protein-binding protein 1, RRM domain (G3BP1, Homo sapiens, UniProt Q13283)
# Sequence of UniProt Q13283 (whole entry, looked up): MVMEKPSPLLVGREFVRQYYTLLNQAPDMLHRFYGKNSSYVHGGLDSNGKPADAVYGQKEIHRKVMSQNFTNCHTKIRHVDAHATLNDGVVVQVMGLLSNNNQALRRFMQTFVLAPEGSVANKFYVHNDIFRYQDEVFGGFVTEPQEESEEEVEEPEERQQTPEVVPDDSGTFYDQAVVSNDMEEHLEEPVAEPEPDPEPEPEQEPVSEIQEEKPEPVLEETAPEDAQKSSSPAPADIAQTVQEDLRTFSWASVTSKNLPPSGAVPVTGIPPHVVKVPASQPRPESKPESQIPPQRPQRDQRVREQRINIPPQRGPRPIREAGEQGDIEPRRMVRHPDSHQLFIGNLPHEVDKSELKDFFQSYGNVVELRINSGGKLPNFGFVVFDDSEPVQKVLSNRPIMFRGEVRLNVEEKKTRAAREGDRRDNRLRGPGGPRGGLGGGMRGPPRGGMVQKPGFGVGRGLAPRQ
# Constant ends, left off below: GGGAGUUCUACAGUCCGACGAUC … UGGAAUUCUCGGGUGUCAAGG
Strand,log2 enrichment
CCUCAAGUCCUGUGCUACACAUCGUAUGUACCGAAUCGGUUGGUUGGUUGGGAAAGUAUUAUGUUACGCCGUUCGGAUCUGCACUUCCAG,-0.191
UCAAGUCCUGUGCUACACAUCGUAUGUACCGAAUCGGGUGGGUUUGGGAAAGGGAAAGUAUUAUGUUACGCCGUUCGGAUCUGCACUUCC,0.697
UCAAGUCCUGUGCUACACAUCGUAUGUACCGAAUCGGUUUGGUUUUUUUGGAGGAAAGUAUUAUGUUACGCCGUUCGGAUCUGCACUUCC,-0.154
UCAAGUCCUGUGCUACACAUCGUAUGUACCGAAUCGGGUUUGGGUUUGGGUGGGAAAGUAUUAUGUUACGCCGUUCGGAUCUGCACUUCC,0.626
AGUCCUGUGCUACACAUCGUAUGUACCGAAUCGGGGAAAGGGGAGGGGUUUUUGGGGAAAGUAUUAUGUUACGCCGUUCGGAUCUGCACU,0.908
AGUCCUGUGCUACACAUCGUAUGUACCGAAUCGGGAGGGUUUUUUUGGGUUUUUGGGAAAGUAUUAUGUUACGCCGUUCGGAUCUGCACU,0.325
CUCAAGUCCUGUGCUACACAUCGUAUGUACCGAAUCGGAGGAAAAAGGAAAGGAAAGUAUUAUGUUACGCCGUUCGGAUCUGCACUUCCA,-0.108
UGGUAUUCAUGGGUAGUUUGAAAUAUCCAGAUGAGAAUGGAUUUGAUGCCUUCCUGAAGAAGCAUGGGGGUAGUGAUAAUGCCUCAACUG,-0.232
UCUCAGCAGGCGCAUCUACACUAGUGACCUGAGGAGAGAAACCCUAACCCCACAAUGGCUGCAUCUUCUCUGAAGACGAGACUGAUGCUC,-0.0875
CCUGUGCUACACAUCGUAUGUACCGAAUCGGGAAAAAAAGGAAAAAAAGGGAAAAAAAGGGAAAGUAUUAUGUUACGCCGUUCGGAUCUG,-0.044
CCUCAAGUCCUGUGCUACACAUCGUAUGUACCGAAUCGGGCGGCGGGGCGGGGAAAGUAUUAUGUUACGCCGUUCGGAUCUGCACUUCCA,0.251
CACAGACAACACGCACCCACACAGACACAGAGGGAAGGGGUUGGGAUGGGGACAGGGAAAACAGCAGGGCGGGGUAGGACCCCAGCCCCU,-0.0835
UCAGCAACCACCUCAACUCAUUGACUCCGCCAACAUCCGUCAGGAGGAUGCCUUUGAUAACAACAGUGACAUUGCUGAAGAUGGUGGCCA,-0.193
CAAGUCCUGUGCUACACAUCGUAUGUACCGAAUCGGGUUUGGGUGGGUUUUUGGGAAAGUAUUAUGUUACGCCGUUCGGAUCUGCACUUC,0.727
